Published values gathered from unrelated publications.
Each line is one published result; not all experiments were run side by side. ± gives the spread as reported.
SH2D3A SH2 domain: SH2 domain-containing protein 3A, SH2 domain (SH2D3A, Homo sapiens, UniProt Q9BRG2)
BCHE: Cholinesterase (BCHE, Homo sapiens, UniProt P06276)

The Kd of `CC[C@H](C)[C@@H]1NC(=O)[C@H](Cc2c[nH]cn2)NC(=O)[C@H](Cc2ccccc2)NC(=O)[C@H](Cc2ccc(O)cc2)NC(=O)[C@H](CCC(N)=O)NC(=O)[C@H](Cc2ccccc2)NC(=O)[C@@H](NC(=O)[C@H](CCSC)NC(C)=O)CSSC[C@@H](C(=O)NCC(=O)N[C@@H](CO)C(=O)NCC(=O)N[C@@H](CO)C(=O)N[C@@H](CC(=O)O)C(=O)N[C@@H](Cc2ccc(O)cc2)C(=O)N[C@@H](CCCCN)C(=O)N[C@@H](CC(=O)O)C(=O)N[C@@H](CC(=O)O)C(=O)N[C@@H](CC(=O)O)C(=O)N[C@@H](CC(=O)O)C(=O)N[C@@H](CCCCN)C(N)=O)NC(=O)[C@H](Cc2ccccc2)NC(=O)[C@@H]2CCCN2C(=O)[C@H](Cc2c[nH]c3ccccc23)NC(=O)[C@H](CC(C)C)NC1=O` is reported as 0.0141 µM (Gastric inhibitory polypeptide receptor, extracellular domain (GIPR, Homo sapiens, UniProt P48546); binding, biolayer interferometry; crude peptide).
`CC(C)C[C@H](NC(=O)[C@@H](NC(=O)[C@H](CO)NC(=O)[C@H](CO)NC(=O)[C@@H](NC(=O)[C@H](CC(=O)O)NC(=O)[C@H](CC(C)C)NC(=O)[C@@H]1CCCN1C(=O)[C@H](CO)NC(=O)c1ccc2c(c1)C(=O)OC21c2ccc(N(C)C)cc2Oc2cc(N(C)C)ccc21)[C@@H](C)O)C(C)C)C(=O)N[C@@H](Cc1ccc(OP(=O)(O)O)cc1)C(=O)N[C@H](C(=O)N[C@@H](C)C(=O)N[C@H](C(=O)N[C@@H](CCC(N)=O)C(=O)N1CCC[C@H]1C(=O)N[C@@H](CC(N)=O)C(=O)N[C@@H](CCC(=O)O)C(=O)N[C@@H](CC(=O)O)C(=O)O)C(C)C)[C@@H](C)O` has a Kd of 1.17 µM (SH2D3A SH2 domain; binding).
For `O=C1C=CC(=O)c2ccccc21`, the Kd was 8 µM (Reaction center protein M chain, QA site (pufM, Cereibacter sphaeroides, UniProt P0C0Y9); binding).
`COc1cc(Nc2ncc(F)c(Nc3ccc4c(n3)NC(=O)C(C)(C)O4)n2)cc(OC)c1OC` gave an IC50 of over 10 µM (Nitric oxide synthase 3 (NOS3, Homo sapiens, UniProt P29474); enzyme activity, inhibitor).
For `CN1C2CCCC1CC(NC(=O)c1nn(C)c3ccccc13)C2` (stereo not shown), the Kd was over 10 µM (Soluble acetylcholine receptor (Aplysia californica, UniProt Q8WSF8, K160T/Q74R/S111E/V159L/W164A); homologous radioligand competition).
`C[C@H]1CN(c2n[nH]c3nc(N[C@H]4CC[C@H](NS(=O)(=O)CCC(F)(F)F)CC4)ncc23)CCO1` gave a remaining binding of 1.15 (Dolichyl-diphosphooligosaccharide--protein glycosyltransferase subunit 1 (Homo sapiens, UniProt P04843); Kinobeads competition, measured: RPN1; 20 µM, unit not given; baseline: vehicle).
`CC[C@H](C)[C@H](NC(=O)[C@H](Cc1c[nH]c2ccccc12)NC(=O)[C@H](C)NC(=O)[C@H](C)NC(=O)[C@H](Cc1ccc(O)cc1)NC(=O)[C@@H](N)CO)C(=O)N[C@@H](CC(=O)O)C(=O)N[C@H](C(=O)N[C@@H](CCC(=O)O)C(=O)N[C@@H](CO)C(=O)N[C@@H](CC(C)C)C(=O)O)C(C)C` has a Kd of 39.2 µM (Serine protease HTRA1, PDZ domain (Homo sapiens, UniProt Q92743); isothermal titration calorimetry; isolated PDZ domain; pH 8.0).
With `N[C@@H](Cc1c[nH]c2ccccc12)C(=O)O` the Kd was 4 ± 0.4 µM (Transcription attenuation protein MtrB, Δ71 truncation (mtrB, Geobacillus stearothermophilus, UniProt Q9X6J6); circular dichroism titration; pH 8, 2 µM TRAP rings).
`COc1cc(N)c(Cl)cc1C(=O)NC[C@@H]1CCN2CCC[C@@H]12` has an IC50 of 8.14 ± 1.84 µM (BCHE; inhibitor, fluorometric).
`O=C(O)CCCN1CC=C(c2ccccc2)CC1` gave a Kd of over 1000 µM (Protein deacetylase HDAC6, ZnF-UBD domain (HDAC6, Homo sapiens, UniProt Q9UBN7)).
`CSCC[C@H](NC(=O)CNC(=O)[C@H](Cc1ccccc1)NC(=O)[C@H](CC(=O)O)NC(=O)CNC(=O)c1ccc2c(c1)C(=O)OC21c2ccc(N(C)C)cc2Oc2cc(N(C)C)ccc21)C(=O)N[C@@H](CO)C(=O)N[C@@H](CCCNC(=N)N)C(=O)N[C@@H](CC(=O)O)C(=O)N[C@H](C(=O)N[C@@H](Cc1ccc(OP(=O)(O)O)cc1)C(=O)N[C@@H](CO)C(=O)N[C@H](C(=O)N[C@@H](CC(=O)O)C(=O)N[C@@H](Cc1ccc(O)cc1)C(=O)N[C@@H](Cc1ccc(O)cc1)C(=O)N[C@@H](CCCNC(=N)N)C(=O)N[C@H](C(=O)N[C@@H](CC(=O)O)C(=O)O)C(C)C)[C@@H](C)O)C(C)C` has a Kd of 0.744 µM (SH2B adapter protein 1, SH2 domain (SH2B1, Homo sapiens, UniProt Q9NRF2); binding).
`CC1=C(CO)C(=O)O[C@@H]([C@@H](C)[C@H]2CC[C@H]3[C@@H]4C[C@H]5O[C@]56[C@@H](O)C=CC(=O)[C@]6(C)[C@H]4CC[C@]23C)C1` has a Kd of 0.0139 µM (Importin subunit beta-1 (KPNB1, Homo sapiens, UniProt Q14974); microscale thermophoresis).
With `CC(C)C[C@H](NC(=O)[C@H](CC(=O)O)NC(=O)[C@H](CO)NC(=O)[C@H](CC(=O)O)NC(=O)[C@H](CO)NC(=O)CNC(=O)[C@H](C)NC(=O)[C@@H](N)Cc1ccc(O)cc1)C(=O)N[C@@H](CC(=O)O)C(=O)N[C@H](C(=O)N[C@@H](CC(=O)O)C(=O)N[C@@H](CC(=O)O)C(=O)N[C@@H](CCC(=O)O)C(=O)N[C@@H](Cc1ccccc1)C(=O)N[C@H](C(=O)N1CCC[C@H]1C(=O)N[C@@H](Cc1ccc(O)cc1)C(=O)O)C(C)C)[C@@H](C)OP(=O)(O)O` the Kd was 15 ± 1.5 µM (PIH1 domain-containing protein 1, residues 1-180 (PIH1D1, Homo sapiens, UniProt Q9NWS0); ITC; pH 8.0, 20 °C, added: phosphopeptide).
`CO[C@H]1C[C@@H]2CC[C@@H](C)[C@@](O)(O2)C(=O)C(=O)N2CCCC[C@H]2C(=O)O[C@H]([C@H](C)C[C@@H]2CC[C@@H](OC(=O)NCCOCCOCCOCCOCCOCCOCCOCCOCCC(=O)N3CCc4cc(Cn5nc(-c6ccc7oc(N)nc7c6)c6c(N)ncnc65)ccc4C3)[C@H](OC)C2)C[C@@H](O)[C@H](C)/C=C(\C)[C@@H](O)[C@@H](OC)C(=O)[C@H](C)C[C@H](C)/C=C/C=C/C=C/1C`: “decreased appetite incidence” 12.5% (patients with advanced solid tumours; intravenous, 10 mg weekly, any grade).
`S` gave a Kd of 96 ± 12 µM (MB, Fe(III) state (Equus caballus, UniProt P68082); stopped-flow UV-visible titration).
For `CC[C@H](C)[C@H](NC(=O)[C@H](Cc1ccc(OP(=O)(O)O)cc1)NC(=O)[C@H](CCC(=O)O)NC(=O)[C@H](Cc1c[nH]cn1)NC(=O)CNC(=O)[C@H](CC(=O)O)NC(=O)[C@H](CO)NC(=O)[C@H](CO)NC(=O)[C@@H](NC(=O)[C@H](CO)NC(=O)[C@H](CCC(=O)O)NC(=O)c1ccc2c(c1)C(=O)OC21c2ccc(N(C)C)cc2Oc2cc(N(C)C)ccc21)C(C)C)C(=O)N[C@@H](Cc1ccc(O)cc1)C(=O)N[C@H](C(=O)N[C@@H](CC(=O)O)C(=O)N1CCC[C@H]1C(=O)N[C@@H](CCSC)C(=O)N[C@@H](CCC(N)=O)C(=O)N[C@@H](CC(=O)O)C(=O)O)C(C)C`, the Kd was 1.97 µM (SH2D3A SH2 domain; binding).
`CC(C)n1cnc2c(NCCc3ccc(O)cc3)nc(-c3csc4ccccc34)nc21` has an IC50 of 0.91 ± 0.21 µM (BCHE; inhibitor, fluorometric).
For `C[C@H](NC(=O)[C@@H](NC(=O)[C@H](CO)NC(=O)[C@H](Cc1c[nH]cn1)NC(=O)[C@@H]1CCCN1C(=O)[C@H](CC(=O)O)NC(=O)[C@H](CCC(N)=O)NC(=O)[C@H](Cc1ccc(OP(=O)(O)O)cc1)NC(=O)[C@H](Cc1c[nH]cn1)NC(=O)[C@@H]1CCCN1C(=O)[C@H](CC(=O)O)NC(=O)[C@H](CCCNC(=N)N)NC(=O)[C@H](CO)NC(=O)[C@@H]1CCCN1C(=O)[C@H](C)NC(=O)[C@@H]1CCCN1C(=O)[C@H](CC(N)=O)NC(=O)c1ccc2c(c1)C(=O)OC21c2ccc(N(C)C)cc2Oc2cc(N(C)C)ccc21)[C@@H](C)O)C(=O)N[C@@H](CC(=O)O)C(=O)O`, the Kd was 1.32 µM (Ras GTPase-activating protein 1, SH2 domains (RASA1, Homo sapiens, UniProt P20936); binding).
The Kd of `CC[C@H](C)[C@H](NC(=O)[C@H](CCC(N)=O)NC(=O)[C@@H](NC(=O)[C@@H]1CCCN1C(=O)[C@@H](NC(=O)[C@H](CO)NC(=O)[C@H](Cc1ccccc1)NC(=O)[C@@H]1CCCN1C(=O)[C@H](CCC(N)=O)NC(=O)[C@@H](N)CCSC)[C@@H](C)CC)C(C)C)C(=O)N[C@H](C(=O)N[C@@H](CC(C)C)C(=O)N[C@@H](CCC(N)=O)C(=O)NCC(=O)N[C@@H](CO)C(=O)N[C@@H](CCCNC(=N)N)C(=O)N[C@@H](CCCNC(=N)N)C(=O)N[C@@H](CCCNC(=N)N)C(=O)N[C@@H](CCC(N)=O)C(=O)NCC(=O)N[C@@H](CCCNC(=N)N)C(N)=O)[C@@H](C)O` is reported as 0.6 µM (Kcnma1 (Mus musculus, UniProt Q08460); ion current, blocker, inside-out patch clamp; Xenopus oocytes; range over 4 µM, pH 7.0, 22–24 °C, at 0 mV, added: 10 µM cytosolic Ca2+).
